# Assay results pooled from the literature.
# Each numbered part is a random draw from the data of one study; scales do not carry over between parts.

# Block 1
# Target: Ras GTPase-activating protein-binding protein 1, full length (G3BP1, Homo sapiens, UniProt Q13283)
# Chain of UniProt Q13283 (whole entry, looked up): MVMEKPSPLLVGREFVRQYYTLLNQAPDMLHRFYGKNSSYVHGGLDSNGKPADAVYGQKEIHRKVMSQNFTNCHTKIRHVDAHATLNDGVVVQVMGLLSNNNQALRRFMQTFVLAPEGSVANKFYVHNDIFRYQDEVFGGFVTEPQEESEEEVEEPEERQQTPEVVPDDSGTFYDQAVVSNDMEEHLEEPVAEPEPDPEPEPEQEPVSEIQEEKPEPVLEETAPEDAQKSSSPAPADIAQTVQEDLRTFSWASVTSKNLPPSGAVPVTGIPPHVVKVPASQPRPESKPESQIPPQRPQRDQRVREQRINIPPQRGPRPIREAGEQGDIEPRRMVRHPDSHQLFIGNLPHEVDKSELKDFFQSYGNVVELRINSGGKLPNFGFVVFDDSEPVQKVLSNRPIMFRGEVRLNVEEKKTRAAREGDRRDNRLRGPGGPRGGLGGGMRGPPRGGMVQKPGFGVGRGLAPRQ
# Technique: RNA Bind-n-Seq
# Molecule type: RNA
# Sample: in vitro
# Concentration: 200 nM
# Setting: whole 134-nt RNA, ends assumed
# Together with: 150 mM LiCl
# Reference: input library
# Direction: higher = stronger binding
# Each molecule: 7-deaza-guanosine replaces G
# All sequences stand within: GGGAGUUCUACAGUCCGACGAUC … UGGAAUUCUCGGGUGUCAAGG
Oligonucleotide,log2 enrichment
ACCAUGCAGGUGGGCAUCUUUGGGAAGUGGGGCAAGGGGGGGAUAGGGAGGGGGGUAACACUAAAGGAACAGGUGGUCCCAGGUCGUUUC,-0.241
UAACUUUAGAGGAGGAUCUGAUGGAUAUGGCAGUGGACGUGGAUUUGGGGAUGGCUAUAGUGGGUAUGGAGGAGGACCUGGAGGUGGCAA,-0.0137
UCAAGUCCUGUGCUACACAUCGUAUGUACCGAAUCGGAAAGGAAAGGGAAAGGGGAAAGUAUUAUGUUACGCCGUUCGGAUCUGCACUUC,-0.545
CUGUGCUACACAUCGUAUGUACCGAAUCGGGGAAAGGGGAAAAAAAGGGGUUUUUUUGGGGAAAGUAUUAUGUUACGCCGUUCGGAUCUG,0.248
CAAGUCCUGUGCUACACAUCGUAUGUACCGAAUCGGGUUUUGGUUUUGGGUUUUGGAAAGUAUUAUGUUACGCCGUUCGGAUCUGCACUU,-1.07
CCUCAAGUCCUGUGCUACACAUCGUAUGUACCGAAUCGGCGGGCGGGGCGGGGAAAGUAUUAUGUUACGCCGUUCGGAUCUGCACUUCCA,0.477
UCUAGAUACAGAUGCACGAUUUGGCCAUGGAUCCGACUACUCUCGCCAACAGAACAGAUUUAAUGACUUUGAUCACCGAGAGAGGGGCAG,-1.21
GCUGUUGGAGUGGAUCCGCCGCACAAUCCCGUGGCUGGAGAACCGGGUGCCCGAGAACACCAUGCAUGCCAUGCAACAGAAGCUGGAGGA,-4.1
UAACUUUAGAGGAGGACCUGAUGGAUAUGGCAGUGGACGUGGAUUUGGGGAUGGCUAUAAUGGGUAUGGAGGAGGACCUGGAGGUGGCAA,-0.61
CACAGACAACACGCACCCACACAGACACAGAGGGAAGGGGUUGGGAUGGGGACAGGUUGCACAGCAGGGCGGGGUAGGACCCCAGCCCCU,-0.374
CACAGACAACACGCACCCACACAGACACAGAGGGAAGGGGUCGGGAUGGGGACAGGGUGCACAGCAGGGCGGGGUAGGACCCCAGCCCCU,-0.574

# Block 2
# Target: RNA binding protein fox-1 homolog 2, RRM domain, GST-SBP tag (RBFOX2, Homo sapiens, UniProt O43251-10, residues 100-194)
# Technique: RNA Bind-n-Seq
# Molecule type: RNA
# Sample: in vitro
# Concentration: 365 nM
# Setting: natural RNA segment, single round, ends assumed
# Reference: no-protein control
# Direction: higher = stronger binding
# All sequences stand within: GGGAGUUCUACAGUCCGACGAUC … UGGAAUUCUCGGGUGCCAA
# Construct (chain): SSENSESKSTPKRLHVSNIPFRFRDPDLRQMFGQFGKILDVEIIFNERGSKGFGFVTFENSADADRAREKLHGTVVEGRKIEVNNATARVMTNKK
Oligonucleotide,RBNS enrichment (R)
CCUCAGGACUGUUUUUGGGGGGCUGACUUGUCUUUCUACGUACGUACUUCCAGGCUGCAAGGUUUUGAAAUUUUCUGUACAGUUUGUGAGGACAUUUGCACUUUGCCACU,0.401
GUUGGCUCAUCAAACCUGGCAACCCUGUGGCCUGUCUGCCGGAGCUGACUGGAUCCACUCAUCAAUUCUUCGUCCCCACUACUAAGACUGGGCAUGUUUUGCUGGUGUGG,0.3
GGAGAGUUUUGAAUGUGCAUAUGCUGACGCCUGAGAACAGACCCAGGUACCCGUGGCUGAGCUGAGCUUCCUCUGCUUUCCCUAGGCCUGGCCUCUGCAGGGAACUGCAG,10.6
ACACCAGCCAUGUCUGCUGAAGGGCCCCAGACUGAGAUGACUCCGGCCUCCACAGUUAGAUGUUUAUGGUGCCAGAGGUCUAUAUUAAGGUAGCUGUCUGUUGCUAGGCA,0.543
AUGUACAGUUAUCUAAGUUAAUUUAAAGUUGUUUGUGCCUUUUUAUUUUUGUUUUUAAUGCUUUGAUAUUUCAAUGUUAGCCUCAAUUUCUGAACACCAUAGGUAGAAUG,1.2
CCAGACAACUGCCAACGUCACUGAGGGCCCUGCUCUGAAGCCCUGGGCCCUGGCUCCAUUAACCUAAAUGUAGCUCCUUAGCGCUAAUCUAGGAACCGCCGCUGCCUGCU,0.348
UGGUGGGGAGGCCACAGGAAGGCCCAACCUGCACGGCAGGACCCCCCUGCAUGGCAGGACCCCUGUGCUUCAGUUCUAAUAAAUCUGAAUUUGGCUGUGCAAAGUCCCCU,0.277
AUCACCUACCCUGUUAAAUGCUGUUUAAUCCCAAGGAUGUAAGUUGAGGUGAGGUGUCUUCUCUGUCUGCCCCAUUGCACUCAACUGAAUAGAAAUAUUUGGGUUUAGAG,0.323
GCCUUUCAUUUUUCACGCUCGUAUUUCCCCACCUGUCCAAGGGUGCAGAUAGCAGGAUUGUGGGGUCGGCCGCAUCUCUCUUGGCAGUGGGUUGUGCUGCCCCUCCCCCC,0.504
UCUGCAGGCUGUGUAAGCAUGUUUACCUGUUGGCUUGCUUUGUGUGUCUGUUAAAUGAAUGUCAUAUGUAAAUGCUAAAAUAAAUCGACAGUGUCUCAGAACUGAAUAAC,19.8
UCGCUCUGCAUGCUCUCUGUCAUACAGACAGGUAACCUAGUUCUGUGUUCACGUGGCCCCCGACUCCUCAGCCACAUCAAGUCUCCUAGACCACUGUGGACUCUAAACUG,0.305
AAUGUAGAUGUUUUAAUAACAAUUUUUGUCCUUCUUAAAAUAAAAUGAGAGAAAUUUGCUUCUUUUAGCCUUUGUUCUAUAGAAUAUACGUGUGCACUAUGACUCUUGUC,0.572

# Block 3
# Target: Interferon regulatory factor 7, full length, phosphomimetic (IRF7, Homo sapiens, UniProt Q92985, residues 1-503, S471D/S472D/S475D/S476D/S477D/S483D/S484D/S487D)
# Chain of UniProt Q92985 (whole entry, unmodified, looked up): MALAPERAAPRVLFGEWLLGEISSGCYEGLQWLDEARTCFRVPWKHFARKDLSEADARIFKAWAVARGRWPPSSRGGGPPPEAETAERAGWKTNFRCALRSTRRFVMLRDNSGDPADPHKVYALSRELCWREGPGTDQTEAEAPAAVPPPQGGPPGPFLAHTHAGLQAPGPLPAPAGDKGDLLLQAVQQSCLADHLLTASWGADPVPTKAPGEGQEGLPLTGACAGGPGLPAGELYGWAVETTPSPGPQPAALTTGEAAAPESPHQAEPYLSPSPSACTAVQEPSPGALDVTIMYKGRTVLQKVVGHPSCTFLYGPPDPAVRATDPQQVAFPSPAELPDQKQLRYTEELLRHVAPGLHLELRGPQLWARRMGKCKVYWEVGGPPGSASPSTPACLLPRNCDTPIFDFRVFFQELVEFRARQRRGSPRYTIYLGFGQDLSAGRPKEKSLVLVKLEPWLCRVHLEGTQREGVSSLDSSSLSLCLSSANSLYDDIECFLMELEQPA
# Technique: protein-binding microarray
# Molecule type: double-stranded DNA, one strand shown
# Sample: in vitro
# Concentration: 2200 nM top
# Setting: 60-bp whole probe
# Together with: salmon DNA 0.4 mg/ml
# Reference: random background probes
# Direction: higher = stronger binding
# All sequences stand within: GCCTAGCAC … GTCTTGATTCGCTTGACGCTGCTG
Oligonucleotide,fitted relative affinity [z-score]
TCCATGCTGGCTTTTATGCGGTGCTAG,-0.188
GACGGTCTCGGTCTCGGCACGTGCTAG,-0.14
TTAGGTTTCCTTCACCTTTAGTGCTAG,1.49
TTAGAACTGAGTACCGATTAGTGCTAG,-0.255
TTAGAACTGCTTTTCCTTTAGTGCTAG,1.53
TTATGTTTCGGACTGGGTTAGTGCTAG,3.17
GACGGTTCCCTTTTCCTGTCGTGCTAG,3.29
TCATCTCTCTTTCCACTACTGTGCTAG,2.67
GACGATATCGGATTTCGAGACGTGCTA,0.626
TTAGGTTTCGGTTTGGGTTAGTGCTAG,14.6
GACGGTATCGACACAGGGGACGTGCTA,-0.266
TTAGGTTACGACACTGGGTTAGTGCTA,-0.17

# Block 4
# Target: Hepatocyte nuclear factor 3-beta, forkhead domain (FOXA2, Homo sapiens, UniProt Q9Y261, residues 142-269)
# Technique: protein-binding microarray
# Molecule type: double-stranded DNA, one strand shown
# Sample: in vitro
# Concentration: not given
# Setting: k-mer, scored over probes, only values ≥0.25
# Direction: higher = stronger binding
# Construct (chain): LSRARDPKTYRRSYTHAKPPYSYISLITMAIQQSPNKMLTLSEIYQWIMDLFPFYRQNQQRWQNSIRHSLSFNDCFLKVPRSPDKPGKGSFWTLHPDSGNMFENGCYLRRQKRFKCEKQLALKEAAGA
Oligonucleotide,E-score
ATACTACA,0.297
CGTATGTA,0.26
CAACAAGG,0.255
AGCAATAT,0.26
ATACGGTA,0.265
AAGACAAC,0.278
AAACACAA,0.324
ACTATCTA,0.363
CGAGTATA,0.265
ATTTGGTA,0.304
ATCAGTAA,0.321
ACGAATAT,0.267

# Block 5
# Target: Histone acetyltransferase KAT6A, winged helix 1, GST fusion (KAT6A, Homo sapiens, UniProt Q92794, residues 1-85)
# Technique: protein binding microarray
# Molecule type: double-stranded DNA, one strand shown
# Sample: in vitro
# Concentration: not given
# Setting: 8-mer, flanks averaged, mean of 2 arrays, mostly near background
# Reference: not given
# Direction: higher = stronger binding
# Construct (chain): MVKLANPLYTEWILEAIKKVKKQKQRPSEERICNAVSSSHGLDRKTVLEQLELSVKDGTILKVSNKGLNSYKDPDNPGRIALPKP
Oligonucleotide,E-score
TTACCGAA,0.0122
GCACCTGA,-0.241
AAGAACTG,-0.164
AATGGAAG,0.00938
ACCGTGCG,0.315
AAGTCCCG,0.184
GACCGAGA,0.116
ACTTTGCA,-0.342
AGACATGA,-0.105
TCAGCAGA,-0.264
GTGTTTCA,-0.0702
ACAATCGC,0.185
AATTGGAC,-0.158
GCCTCTAA,-0.0577
AGCTCGCG,0.176
AGATCTAT,-0.0713
AGAAATAC,-0.12
AGACGAAC,-0.0341
CCTCCTAG,-0.151
CCAACATC,-0.011
ACCAAATA,-0.301
CTCTCCAC,-0.27
GACTCTCC,-0.105
AGGCCGTG,0.286
ATCTTAGA,-0.0854

# A few entries again (block 2):
Oligonucleotide,RBNS enrichment (R)
GGAGAGUUUUGAAUGUGCAUAUGCUGACGCCUGAGAACAGACCCAGGUACCCGUGGCUGAGCUGAGCUUCCUCUGCUUUCCCUAGGCCUGGCCUCUGCAGGGAACUGCAG,10.6
CCAGACAACUGCCAACGUCACUGAGGGCCCUGCUCUGAAGCCCUGGGCCCUGGCUCCAUUAACCUAAAUGUAGCUCCUUAGCGCUAAUCUAGGAACCGCCGCUGCCUGCU,0.348
AAUGUAGAUGUUUUAAUAACAAUUUUUGUCCUUCUUAAAAUAAAAUGAGAGAAAUUUGCUUCUUUUAGCCUUUGUUCUAUAGAAUAUACGUGUGCACUAUGACUCUUGUC,0.572
AUGUACAGUUAUCUAAGUUAAUUUAAAGUUGUUUGUGCCUUUUUAUUUUUGUUUUUAAUGCUUUGAUAUUUCAAUGUUAGCCUCAAUUUCUGAACACCAUAGGUAGAAUG,1.2
GUUGGCUCAUCAAACCUGGCAACCCUGUGGCCUGUCUGCCGGAGCUGACUGGAUCCACUCAUCAAUUCUUCGUCCCCACUACUAAGACUGGGCAUGUUUUGCUGGUGUGG,0.3
CCUCAGGACUGUUUUUGGGGGGCUGACUUGUCUUUCUACGUACGUACUUCCAGGCUGCAAGGUUUUGAAAUUUUCUGUACAGUUUGUGAGGACAUUUGCACUUUGCCACU,0.401
UCGCUCUGCAUGCUCUCUGUCAUACAGACAGGUAACCUAGUUCUGUGUUCACGUGGCCCCCGACUCCUCAGCCACAUCAAGUCUCCUAGACCACUGUGGACUCUAAACUG,0.305
